Measurements pooled from the literature.
Every numbered part comes from another study and shows a few of its results, in no order.

Study 1
Target: Phosphate system positive regulatory protein PHO4, full length, GST-tagged (PHO4, Saccharomyces cerevisiae, UniProt P07270, residues 1-312)
Technique: competition protein-binding microarray
Form: double-stranded DNA, one strand shown
Sample: in vitro
Concentration: 2 µM
Notes: whole 60-bp probe, lowest competitor level
With: Cbf1 competitor, 0.05 µM
Direction: higher = stronger binding
Construct (chain): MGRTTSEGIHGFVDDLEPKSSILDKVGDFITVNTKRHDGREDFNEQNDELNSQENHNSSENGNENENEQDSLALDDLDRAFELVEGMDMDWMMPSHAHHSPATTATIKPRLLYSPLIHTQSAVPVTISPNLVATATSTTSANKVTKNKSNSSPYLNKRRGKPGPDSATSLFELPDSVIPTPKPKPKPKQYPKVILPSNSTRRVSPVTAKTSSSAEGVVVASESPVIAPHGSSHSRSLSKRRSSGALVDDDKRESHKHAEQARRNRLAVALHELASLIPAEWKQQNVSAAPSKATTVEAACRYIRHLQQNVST
With `GTCTTGTCTCATTGGCTGGTGGGTGTCCCCACTTCAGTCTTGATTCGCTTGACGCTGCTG` the fluorescence intensity was 4700 a.u.
`AAATTACTAAGTTTTCACGTGGCTTACCCCGTATGAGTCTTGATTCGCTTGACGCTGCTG` has a fluorescence intensity of 12300 a.u.
For `CGTCCTAGCGATTGACACGTGGGTGCCATGAGGAAGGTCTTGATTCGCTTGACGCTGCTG`, the fluorescence intensity was 18900 a.u.
`CTTGATTCTAAATATCACAGTAGAATAATGGTTTATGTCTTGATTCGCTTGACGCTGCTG` has a fluorescence intensity of 3420 a.u.
The fluorescence intensity of `TGTCGTTTGGTTATTGTCGTGGGTATGCTTCTATGTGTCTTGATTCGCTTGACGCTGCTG` is reported as 7240 a.u.
With `AAAAGCAACTCGACCGTCGTGGGTACAAACCCCACCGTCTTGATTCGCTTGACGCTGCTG` the fluorescence intensity was 7160 a.u.
With `CGGGGTTAAGTTTTTCACGTGACGTGCGATCAGCAGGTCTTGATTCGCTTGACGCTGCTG` the fluorescence intensity was 10800 a.u.
For `CCAGATGCTGATTTGCACGTGTTGGGATCATATTCTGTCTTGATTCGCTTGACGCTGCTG`, the fluorescence intensity was 19600 a.u.

Study 2
Target: Ras GTPase-activating protein-binding protein 1, full length (G3BP1, Homo sapiens, UniProt Q13283)
UniProt Q13283, sequence (whole entry, looked up): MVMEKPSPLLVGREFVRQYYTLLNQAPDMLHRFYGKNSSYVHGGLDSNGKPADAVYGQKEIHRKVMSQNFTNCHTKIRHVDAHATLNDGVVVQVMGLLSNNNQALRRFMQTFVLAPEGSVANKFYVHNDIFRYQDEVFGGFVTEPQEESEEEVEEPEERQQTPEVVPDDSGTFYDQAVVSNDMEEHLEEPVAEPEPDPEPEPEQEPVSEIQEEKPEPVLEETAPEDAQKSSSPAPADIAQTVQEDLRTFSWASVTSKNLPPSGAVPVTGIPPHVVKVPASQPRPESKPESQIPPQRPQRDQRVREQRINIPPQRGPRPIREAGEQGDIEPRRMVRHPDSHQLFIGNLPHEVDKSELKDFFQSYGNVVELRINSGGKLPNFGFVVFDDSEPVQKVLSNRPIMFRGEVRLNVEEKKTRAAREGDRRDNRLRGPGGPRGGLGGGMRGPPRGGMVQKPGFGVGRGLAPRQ
Technique: RNA Bind-n-Seq
Form: RNA
Sample: in vitro
Concentration: 200 nM
Notes: whole 134-nt RNA, ends assumed
With: 150 mM KCl
Relative to: input library
Direction: higher = stronger binding
With `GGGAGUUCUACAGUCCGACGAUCUCAAGUCCUGUGCUACACAUCGUAUGUACCGAAUCGGGGUUGGGUUGGGGUUGGGAAAGUAUUAUGUUACGCCGUUCGGAUCUGCACUUCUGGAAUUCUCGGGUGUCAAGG` the log2 enrichment was 0.835.
`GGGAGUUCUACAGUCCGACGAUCUUCCUCAAGUCCUGUGCUACACAUCGUAUGUACCGAAUCGGAGGAGGAGGAAAGUAUUAUGUUACGCCGUUCGGAUCUGCACUUCCAGCAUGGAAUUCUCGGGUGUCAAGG` has a log2 enrichment of -0.972.
`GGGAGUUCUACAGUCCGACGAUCUAACUUUAGAGGAGGAUCUGAUGGAUAUGGUAGUGGACGUGGAUUUGGGGAUGGCUAUAAUGGGUAUGGAGGAGGACCUGGAGGUGGCAAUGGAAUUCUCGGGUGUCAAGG` gave a log2 enrichment of 0.38.
For `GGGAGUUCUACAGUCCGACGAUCUAACUUUAGAGGAGGAUCUGAUGGAUAUGGCAGUGGACGUGGAUUUGGGGAUGGUUAUAAUGGGUAUGGAGGAGGACCUGGAGGUGGCAAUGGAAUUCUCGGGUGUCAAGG`, the log2 enrichment was 0.239.
With `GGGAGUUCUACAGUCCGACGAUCAAGUCCUGUGCUACACAUCGUAUGUACCGAAUCGGAAAAGGAAAAGGGAAAAGGGGAAAGUAUUAUGUUACGCCGUUCGGAUCUGCACUUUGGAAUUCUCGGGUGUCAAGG` the log2 enrichment was -0.812.
`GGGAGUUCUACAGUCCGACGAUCAGUCCUGUGCUACACAUCGUAUGUACCGAAUCAAAUUUAAAUUUUUUUAAAUUUAAAAAAGUAUUAUGUUACGCCGUUCGGAUCUGCACUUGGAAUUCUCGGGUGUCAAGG` has a log2 enrichment of -1.97.
With `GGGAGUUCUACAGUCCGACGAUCUGCUCUUCACCAAGGAGGACGAGCCUGGCCGCUGCGACGUCCUGAGGAACCCCCUCUACCUCCAGAGUGUGAAGCUGCAGGAAGGUAAGCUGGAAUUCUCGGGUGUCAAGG` the log2 enrichment was 0.203.
For `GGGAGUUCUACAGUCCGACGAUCCUGUGCUACACAUCGUAUGUACCGAAUCGGGGUUUUUGGGGAAAAAAAGGGGUUUUUGGGGAAAGUAUUAUGUUACGCCGUUCGGAUCUGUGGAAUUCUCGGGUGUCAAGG`, the log2 enrichment was -0.0919.

Study 3
Target: Interferon regulatory factor 7, full length, phosphomimetic (IRF7, Homo sapiens, UniProt Q92985, residues 1-503, S471D/S472D/S475D/S476D/S477D/S483D/S484D/S487D)
UniProt Q92985, sequence (whole entry, unmodified, looked up): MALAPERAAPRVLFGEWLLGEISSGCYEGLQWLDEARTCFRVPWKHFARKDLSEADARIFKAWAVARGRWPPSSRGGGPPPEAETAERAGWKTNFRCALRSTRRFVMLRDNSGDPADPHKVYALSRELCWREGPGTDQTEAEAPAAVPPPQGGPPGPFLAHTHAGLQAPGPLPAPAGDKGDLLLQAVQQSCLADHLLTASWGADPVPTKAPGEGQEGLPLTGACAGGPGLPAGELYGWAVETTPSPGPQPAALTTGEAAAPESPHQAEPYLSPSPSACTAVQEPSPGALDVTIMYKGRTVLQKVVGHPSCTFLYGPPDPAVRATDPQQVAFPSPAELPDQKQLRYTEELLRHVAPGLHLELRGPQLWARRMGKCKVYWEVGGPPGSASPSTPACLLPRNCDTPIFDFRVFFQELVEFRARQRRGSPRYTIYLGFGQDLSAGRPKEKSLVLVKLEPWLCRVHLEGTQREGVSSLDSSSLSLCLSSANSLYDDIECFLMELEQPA
Technique: protein-binding microarray
Form: double-stranded DNA, one strand shown
Sample: in vitro
Concentration: 2200 nM top
Notes: 60-bp whole probe
With: salmon DNA 0.4 mg/ml
Relative to: random background probes
Direction: higher = stronger binding
Shared flanks, not repeated: GCCTAGCACT … GTCTTGATTCGCTTGACGCTGCTG
For `TAGGTTTCCTATTGCTTTAGTGCTAG`, “fitted relative affinity” read 2.12 z-score.
`TAGATTACAGTTCCGATTAGTGCTAG`: “fitted relative affinity” 0.986 z-score.
`TAGATTGCAGTTCCGATTAGTGCTAG`: “fitted relative affinity” 0.935 z-score.
`TAGGATTGGGTTTCGGTTAGTGCTAG` — result for “fitted relative affinity”: 4.22 z-score.
For `TAGGACGGCTTCTCCTTTAGTGCTAG`, “fitted relative affinity” read 0.178 z-score.
`CAAGTGTGTGTCTGATACTGTGCTAG` — result for “fitted relative affinity”: 0.245 z-score.
Under “fitted relative affinity”, `TAGGTTTCGACTATCGGTGAGTGCTA` is recorded as 3.1 z-score.

Single results of other studies
The fold induction of `PhoQ, residues 284 288 289 292 302 303 SCEHLI` is reported as 17.2 (PhoP, residues 12 14 15 18 19 LFHKL (Escherichia coli, UniProt P23836); Sort-seq, item: YFP reporter; E. coli; PhoQ-PhoP variant library, with: 10 µM Mg2+; relative to: high Mg2+ state, higher = stronger signaling).

For quick reference, copied from above (study 3):
For `TAGGTTTCCTATTGCTTTAGTGCTAG`, “fitted relative affinity” read 2.12 z-score.
`TAGATTACAGTTCCGATTAGTGCTAG`: “fitted relative affinity” 0.986 z-score.
`TAGATTGCAGTTCCGATTAGTGCTAG`: “fitted relative affinity” 0.935 z-score.
